Published values collected from several papers.
Every numbered part comes from another study and shows a few of its results, in no order. Positions count from the first letter of the parent shown.

Block 1
Target: CCNF, cyclin fold, Cln2 fusion (human)
Method: yeast growth competition, sequencing
Matrix: yeast
Setting: strong parent motif
Relative to: not given
Direction: higher = stronger binding
Parent: CDC6 docking peptide (human); TLKGRRLVFDNQL
Substitution | normalised enrichment score
TQKGRRLVFDNQL [L2Q] | 7.79
TLKGFRLVFDNQL [R5F] | 0.687
TLWGRRLVFDNQL [K3W] | 7.72
TLKGRRLVFPNQL [D10P] | 8.2
TLKGRRLSFDNQL [V8S] | 6.18
QLKGRRLVFDNQL [T1Q] | 7.52
TLEGRRLVFDNQL [K3E] | 5.78
TLKGRRLMFDNQL [V8M] | 7.67
TLKGRRLVQDNQL [F9Q] | 0.355
TLKGRRLVKDNQL [F9K] | 1.64
TLKGRRLVFDNQW [L13W] | 8.52
GLKGRRLVFDNQL [T1G] | 8.69
TLKGRRLTFDNQL [V8T] | 7.14
TLMGRRLVFDNQL [K3M] | 8.09
NLKGRRLVFDNQL [T1N] | 9
TLKGRRLVDDNQL [F9D] | 0.221
TLKGRRLVFGNQL [D10G] | 7.15
TLKGRRLHFDNQL [V8H] | 8.49
TLKGRRLVIDNQL [F9I] | 2.73
TLKERRLVFDNQL [G4E] | 1.25
TLKGRRLVHDNQL [F9H] | 0.634
TLKGRRLVEDNQL [F9E] | 0.755
TLKGRRLVFDNLL [Q12L] | 10.9
TLKGRRLVYDNQL [F9Y] | 5.03
TLKGRRLYFDNQL [V8Y] | 10.1

Block 2
Target: RING finger protein unkempt homolog, zinc fingers 1-6, GST-SBP tag (UNK, Homo sapiens, UniProt Q9C0B0, residues 30-357)
Sequence of UniProt Q9C0B0 (30-357, looked up): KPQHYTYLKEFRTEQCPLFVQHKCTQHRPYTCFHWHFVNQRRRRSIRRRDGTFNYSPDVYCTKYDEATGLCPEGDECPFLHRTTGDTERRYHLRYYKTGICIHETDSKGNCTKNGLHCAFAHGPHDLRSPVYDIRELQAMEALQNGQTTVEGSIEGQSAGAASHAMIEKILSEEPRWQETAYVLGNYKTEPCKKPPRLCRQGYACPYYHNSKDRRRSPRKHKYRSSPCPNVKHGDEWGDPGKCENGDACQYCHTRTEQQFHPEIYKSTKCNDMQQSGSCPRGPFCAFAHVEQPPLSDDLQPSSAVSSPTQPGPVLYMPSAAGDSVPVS
Method: RNA Bind-n-Seq
Form: RNA
Matrix: in vitro
Concentration: not given
Setting: RNA with constant flanks, human and mouse sites, ends assumed
Relative to: input RNA pool
Direction: higher = stronger binding
Shared flanks, not repeated: GGGAGUUCUACAGUCCGACGAUC … CAACAGAGGAUUGAGCAUCA
Strand | bound/input enrichment
CCGACCACAGCCCCUCACAAGGAGAGGUACUUCGACCGAGUAGAUGAGAACAACCCAGAGUACUUGAGGGAGAGGAACAUGGCACCAGACCUUCGCCAGGACUUCAACAUGAUGGAGCAA | 0.199 ratio
GCCAUGGCUGACAAGGAAGCGGCCUUUGACGACGCAGUGGAAGAACGGGUGAUCAACGAGGAGUACAAAAUAUGGAAGAAGAACACCCCUUUUCUUUAUGAUUUGGUGAUGACCCAUGCC | 0.131 ratio
CCCAACAACACAGUAGUUGGGUCAUCAUAUGUACUUUUUGUCUUAUCAAUUUUCUUUACAAUAGUAGGACUUCUAUUUGCUGGCAAAGUUUGUUUACCAGGCUGAUGAAUGUCUAAAUUG | 0.141 ratio
AUGGUGCAGAACGUGAGCUUCAAAUAUACGAAAGACGGGCCUUGCAUCUACAAUAAUCUAGAAUUUGGUAUUGAUCUUGACACACGAGUGGCUCUGGUAGGACCCAAUGGAGCAGGGAAG | 1.3 ratio
GGCCCGCAGGAAAUGAGGAAUGGCCGAGCUGGAGAGAAGAGCUGAUUUUGGCAUUACUAAGCCCAGAACGCACAUAACCCAUAGUGAAAUGUGCUGGCCUCUGGUGCAUUUUGCAAGAUG | 0.281 ratio
CAGUGUGCAAUACUUUCCCCGGCAUUUAAAGUUAGAGAAUUUUCCGUCACAGAUGCAGUUCCUUUUCCAAUAUCUCUGAUCUGGAACCAUGAUUCAGAAGAUACUGAAGGUGUUCAUGAA | 0.195 ratio
AUUAUUGAAGAAGAUUUUAAUAUUGCACUAGGAGUUUUUGCUUUAGCUGGACUAACAGAUUUGUUGGAUGGAUUUAUUGCUCGAAACUGGGCCAAUCAAAGAUCAGCUUUGGGAAGUGCU | 1.51 ratio
CCGGCCGCGUCUCCUUCCUCCCCCUUCCCUCCCCCUUUUUUGUUUUCCGUUCCCCUUCCCCCUCCCUUCCCCGUCCCCGACGACCGGAUCCAGAGGAGGCAGCUGCGGUGGCAGCUGCUG | 1.32 ratio
GGCUUAAACAAAUCUGAAGUUAGUCAUAGGCGAGCCUUCCAUGGUUGGAAUGAAUUUGAUAUCAGUGAAGAUGAACCAUUAUGGAAGAAGUAUAUUUCUCAGUUUAAAAAUCCCCUUAUC | 0.297 ratio
AGUCUUAAAAGACCCUGGGAAGAUGAUCCUCCAAAUGUACAUAUUAUUGGAAAUCUGCCUUUUAGUGUUUCAACUCCACUGAUUAUCAAGUGGCUUGAAAAUAUUUCCUGUAGAGAUGGA | 1.25 ratio
AUCUCUGCUAUGAACAAGGUUGCAGAAGUUUUACAAGUACCUCCAAUGAGAGUAUAUGAAGUAGCAACUUUUUAUACAAUGUAUAAUCGAAAGCCAGUUGGAAAGUAUCACAUUCAGGUC | 0.114 ratio

Block 3
Target: Interferon regulatory factor 5, full length, phosphomimetic (IRF5, Homo sapiens, UniProt Q13568-2, residues 1-514, K96S/S451D/S453D/S456D/S462D)
Method: protein-binding microarray
Form: double-stranded DNA, one strand shown
Matrix: in vitro
Concentration: 250 nM
Setting: 60-bp whole probe
Added: salmon DNA 0.4 mg/ml
Relative to: random background probes
Direction: higher = stronger binding
Shared flanks, not repeated: GCCTAGCAC … GTCTTGATTCGCTTGACGCTGCTG
Strand | log fluorescence [z-score]
GACGGACTGGGTTTCGGCACGTGCTAG | 2.34
TACGGACTGGACTTTCGGGACGTGCTA | 4.3
TGAGGTATCCTTATCCTTTAGTGCTAG | -0.227
GACGATATCAGTTCCGAGACGTGCTAG | 1.23
GACCATTTCAGTATCGAGACGTGCTAG | 3.62
TCAGTTACGGAATTTCCCACTGTGCTA | 0.546
TTAGGTATCATACTGCTTTAGTGCTAG | 0.745
GACGAACTGCGGTATCGAGACGTGCTA | 0.245
TTAGATATCAGTATCAATTAGTGCTAG | 2.73
CACGAACTGAGTCTCGAGACGTGCTAG | -0.081
TTATGTCTCCTTCTCCTTTAGTGCTAG | 0.501
TTAGAACTGAGTATCGACTAGTGCTAG | 3.36
GACGATGCCAGTTTCGAGACGTGCTAG | 4.83
TAAGGTCTCCTTTTCCTTTAGTGCTAG | 0.208
CTTGTTTCCAGTATATTTAAGTGCTAG | 1.36
TTAGGACTGCTTATCTTTTAGTGCTAG | 0.0618

Block 4
Target: RNA binding protein fox-1 homolog 2, RRM domain, GST-SBP tag (RBFOX2, Homo sapiens, UniProt O43251-10, residues 100-194)
Method: RNA Bind-n-Seq
Form: RNA
Matrix: in vitro
Concentration: 365 nM
Setting: natural RNA segment, single round, ends assumed
Relative to: no-protein control
Direction: higher = stronger binding
Shared flanks, not repeated: GGGAGUUCUACAGUCCGACGAUC … UGGAAUUCUCGGGUGCCAA
Residues (chain): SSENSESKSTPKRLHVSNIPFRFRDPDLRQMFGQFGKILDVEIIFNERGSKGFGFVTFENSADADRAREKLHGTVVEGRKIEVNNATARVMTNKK
Strand | RBNS enrichment (R)
UCCCCACUGUAGGGGGAAGGAAGGGAGUGACUUCAGUGGGUUCUCUACCAAAAACAGGGCUAAGGGCUGGAGAUGGAUCCCCGUUCCUUGUCCAGCCUCCUGCUACCGCU | 0.244
UGUGAUUUACUGUUAGAUUGCCAAUAUAAGUAAAUAUAGACAUAAUCUAUAUAUAGUGUUUCACAAAGCUUAGAUCUUUAACCUUGCAGCUGCCCCACAGUGCUUGACCU | 0.337
GGCUACCUAAGGUUAACAUGUCACUAGAGUAUUUUUAUGAGAGACAAACAUUAUAAAAAUCUGAUGGCAAAAGCAAAACAAAAUGGAAAGUAGGGGAGGUGGAUGUGACA | 0.576
AAGGUGGACAUGGGAUUCCUCACUGGGAAGAGAGUUUUUCCCAUGCAGAGAGCCCCAUUAUCUCCUCUGGACCUGGGCCUUCGAACACCUGGGGGGUAUUUUUUGCCCUC | 0.254
UGGGGUAUAGAACGCUAAGAAUUUUCCCCCAAGGACUCUUGCUUCCUUAAGCCCUUCUGGCUUCGUUUAUGGUCUUCAUUAAAAGUAUAAGCCUAACUUUGUCGCUAGUC | 0.316
UAUAACGUAUCAUGGCAACCAGAGCUUCCCAUAUUAUUGACAAGUAGGGAUCAUUAGGUUCUGGUUUGAACAUUCUGAAUGUGAACAAAAUGAAAUAGUAGUUAAGAGGU | 0.573
UGGCGCACGCUUAUUUUAGGCCAGCGGCAGGGGACUCCAGCCUGCUGGACACUUCAGUCCAGCUCUCUCCUGACUGGGGCUUGCGACUCACAGGAUUGCAUCGUCCCAGC | 6.54
ACCUUCUUCAGGCUGUCAAGCACGGGAGAGGAGACACAGUGGGAGGGAUUCAUAAGGAGAAAACAGCGUCUGGCAGGCAUGGCAGAAAGUGCUGUUAAGCAUUAGCUGGC | 1.11
AGCUUUGCCCCAAGCCAAUCCCUGCUUUUAAAUGACCCGCAGCGGGGAGCUCUGAAGAAGGAGCUCUGAAGGAAAGGAACAUUGUAUCUGGACAGCAAGCAAGCCAUUUC | 0.554
GGAUUUUGAGGUUAUUUUAACCAUGGAAUUAUUUUUAUAGAAGGGGAAAAUGUAUGUGAAAGUCUCUAUUUGUGUAUUUCUCUCCUAAAGUUGUGUCUCUUUGGGAAUUG | 0.871
UCGAUUCUCCAAGGAGUCCUUCACUGGCCUAAACAUUCUGUAAUGUUGGGCAUUCAAGGGAAUGGAAGAAAACAAACCACAUGCCUUUAACAGAUGAACUGUAAUGACGA | 0.261
UAUCAUCUUCAGAGAAAAAAUAAAGCAAGAAAUACUAACAUCAAAAGGACAGGUAUGAUGAUGCGAUAAUAAUAAACAUCUGCGUUUGUCUCUUCACUAAGAGUAAACUG | 0.394

Block 5
Target: Histone acetyltransferase KAT6A, winged helix 2, GST fusion (KAT6A, Homo sapiens, UniProt Q92794, residues 85-181)
Method: protein binding microarray
Form: double-stranded DNA, one strand shown
Matrix: in vitro
Concentration: not given
Setting: 8-mer, flanks averaged, mean of 2 arrays, mostly near background
Relative to: not given
Direction: higher = stronger binding
Target sequence (chain): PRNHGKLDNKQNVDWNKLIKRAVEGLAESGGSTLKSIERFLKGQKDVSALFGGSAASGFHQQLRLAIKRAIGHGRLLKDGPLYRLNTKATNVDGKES
Strand | E-score
ATCTATAA | -0.0497
GCCCCAGC | 0.232
GGACGGGA | -0.0242
CAAGAGAA | -0.0152
ACATATCA | -0.032
ACGCATAT | -0.117
GCCGGTCA | 0.13
AAGCGGGT | 0.0864
AATGAACC | 0.116
ATTGAAAT | 0.098
AATAGGCG | 0.168
ACAATTAC | -0.0994
CACAAAAA | 0.135
CCGGGTAA | 0.0893
AAGAAGAT | 0.153
GACTCACC | -0.171
AAGGGCTG | 0.0886
ATCTTTAC | -0.0234
AAAGAGTG | -0.0564
CATCCGCC | 0.221
ACCCTACC | -0.199
GAGTAGTA | -0.116
ACGCGAGC | 0.0369
CGTAACCC | -0.114
GGACGGAC | -0.101
